# Results from different studies.
# Values joined by “and” are separate records of one study, mostly repeats; a detail may differ. ± marks the error that the study gave.
# UniProt O43148, sequence (whole entry, looked up): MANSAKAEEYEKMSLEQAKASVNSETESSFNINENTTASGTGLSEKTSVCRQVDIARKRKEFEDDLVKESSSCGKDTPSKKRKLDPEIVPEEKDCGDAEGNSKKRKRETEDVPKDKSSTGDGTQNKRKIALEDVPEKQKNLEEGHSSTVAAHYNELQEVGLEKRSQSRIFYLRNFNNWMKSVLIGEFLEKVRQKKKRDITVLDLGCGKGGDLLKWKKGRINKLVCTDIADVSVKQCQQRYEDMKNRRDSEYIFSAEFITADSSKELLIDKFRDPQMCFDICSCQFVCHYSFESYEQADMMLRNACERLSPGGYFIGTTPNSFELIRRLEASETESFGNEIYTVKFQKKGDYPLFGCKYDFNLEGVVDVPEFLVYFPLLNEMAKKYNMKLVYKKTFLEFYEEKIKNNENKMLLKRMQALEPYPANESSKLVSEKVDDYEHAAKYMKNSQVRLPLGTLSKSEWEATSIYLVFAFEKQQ
# UniProt Q9NZQ7, sequence (whole entry, looked up): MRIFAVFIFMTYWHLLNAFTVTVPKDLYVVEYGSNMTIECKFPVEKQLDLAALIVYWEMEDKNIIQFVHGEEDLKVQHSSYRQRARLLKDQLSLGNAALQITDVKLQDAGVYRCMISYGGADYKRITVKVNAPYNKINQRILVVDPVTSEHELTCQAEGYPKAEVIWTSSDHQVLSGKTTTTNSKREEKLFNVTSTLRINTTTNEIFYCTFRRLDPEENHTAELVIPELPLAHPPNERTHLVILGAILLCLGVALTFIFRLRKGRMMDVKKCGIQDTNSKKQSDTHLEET
# UniProt P20231, sequence (whole entry, looked up): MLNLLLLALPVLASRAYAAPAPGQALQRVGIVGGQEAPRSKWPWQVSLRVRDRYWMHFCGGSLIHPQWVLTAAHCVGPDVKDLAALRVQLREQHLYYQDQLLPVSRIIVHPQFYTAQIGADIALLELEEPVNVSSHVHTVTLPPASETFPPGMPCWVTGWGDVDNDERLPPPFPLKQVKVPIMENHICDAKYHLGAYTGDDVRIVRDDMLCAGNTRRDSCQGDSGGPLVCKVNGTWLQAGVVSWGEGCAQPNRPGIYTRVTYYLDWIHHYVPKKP
# UniProt Q8WXS5, sequence (whole entry, looked up): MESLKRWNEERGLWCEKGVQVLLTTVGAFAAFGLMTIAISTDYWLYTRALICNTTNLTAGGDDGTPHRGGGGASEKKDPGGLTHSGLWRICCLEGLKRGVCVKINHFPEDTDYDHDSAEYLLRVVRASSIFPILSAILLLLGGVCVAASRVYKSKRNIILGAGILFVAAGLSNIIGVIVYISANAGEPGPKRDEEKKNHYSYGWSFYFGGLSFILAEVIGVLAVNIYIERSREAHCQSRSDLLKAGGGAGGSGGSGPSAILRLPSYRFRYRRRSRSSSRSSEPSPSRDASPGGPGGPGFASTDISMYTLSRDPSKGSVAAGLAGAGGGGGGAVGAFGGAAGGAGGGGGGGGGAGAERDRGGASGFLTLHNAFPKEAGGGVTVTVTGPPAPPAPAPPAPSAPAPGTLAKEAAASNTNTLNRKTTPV
# UniProt P97612, sequence (whole entry, looked up): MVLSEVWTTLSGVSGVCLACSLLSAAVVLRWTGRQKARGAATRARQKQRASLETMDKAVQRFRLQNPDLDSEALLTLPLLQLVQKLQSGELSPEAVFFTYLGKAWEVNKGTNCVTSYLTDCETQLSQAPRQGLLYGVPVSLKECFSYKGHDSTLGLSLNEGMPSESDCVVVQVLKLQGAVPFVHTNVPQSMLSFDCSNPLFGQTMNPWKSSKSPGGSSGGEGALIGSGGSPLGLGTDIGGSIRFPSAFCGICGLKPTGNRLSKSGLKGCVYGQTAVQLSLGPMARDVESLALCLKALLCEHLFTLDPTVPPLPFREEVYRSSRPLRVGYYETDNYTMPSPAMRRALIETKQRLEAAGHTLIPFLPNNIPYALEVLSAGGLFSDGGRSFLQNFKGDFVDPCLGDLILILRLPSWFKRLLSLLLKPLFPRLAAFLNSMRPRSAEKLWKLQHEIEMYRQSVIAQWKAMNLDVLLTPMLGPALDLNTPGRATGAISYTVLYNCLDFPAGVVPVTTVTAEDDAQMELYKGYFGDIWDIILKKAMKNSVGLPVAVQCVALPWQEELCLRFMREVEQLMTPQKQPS
# UniProt Q8E0N2, sequence (whole entry, looked up): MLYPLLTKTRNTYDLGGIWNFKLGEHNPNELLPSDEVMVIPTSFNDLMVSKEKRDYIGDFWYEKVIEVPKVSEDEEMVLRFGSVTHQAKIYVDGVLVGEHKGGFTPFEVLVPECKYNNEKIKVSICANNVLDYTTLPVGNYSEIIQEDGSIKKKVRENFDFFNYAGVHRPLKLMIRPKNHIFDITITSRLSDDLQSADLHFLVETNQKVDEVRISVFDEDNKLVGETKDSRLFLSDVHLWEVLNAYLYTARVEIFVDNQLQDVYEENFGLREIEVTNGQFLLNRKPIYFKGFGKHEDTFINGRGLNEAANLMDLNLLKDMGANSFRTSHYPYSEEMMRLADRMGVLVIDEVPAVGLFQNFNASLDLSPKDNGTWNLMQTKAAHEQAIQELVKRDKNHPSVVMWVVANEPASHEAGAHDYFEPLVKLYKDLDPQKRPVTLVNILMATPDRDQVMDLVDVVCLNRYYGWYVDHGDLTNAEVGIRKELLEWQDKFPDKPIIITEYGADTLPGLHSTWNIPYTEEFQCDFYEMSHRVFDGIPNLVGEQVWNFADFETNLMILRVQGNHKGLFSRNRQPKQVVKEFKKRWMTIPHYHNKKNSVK
# UniProt P30550, sequence (whole entry, looked up): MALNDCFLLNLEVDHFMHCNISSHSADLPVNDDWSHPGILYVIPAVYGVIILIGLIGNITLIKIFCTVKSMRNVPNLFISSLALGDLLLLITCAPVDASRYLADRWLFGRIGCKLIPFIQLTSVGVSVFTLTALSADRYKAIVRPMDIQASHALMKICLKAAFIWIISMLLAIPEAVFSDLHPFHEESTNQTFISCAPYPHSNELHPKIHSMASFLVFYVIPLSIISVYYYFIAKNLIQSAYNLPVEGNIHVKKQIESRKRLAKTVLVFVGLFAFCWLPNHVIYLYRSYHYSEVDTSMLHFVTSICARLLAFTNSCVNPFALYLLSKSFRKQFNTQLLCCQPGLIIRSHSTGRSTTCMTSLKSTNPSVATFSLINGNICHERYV
# UniProt P05804, sequence (whole entry, looked up): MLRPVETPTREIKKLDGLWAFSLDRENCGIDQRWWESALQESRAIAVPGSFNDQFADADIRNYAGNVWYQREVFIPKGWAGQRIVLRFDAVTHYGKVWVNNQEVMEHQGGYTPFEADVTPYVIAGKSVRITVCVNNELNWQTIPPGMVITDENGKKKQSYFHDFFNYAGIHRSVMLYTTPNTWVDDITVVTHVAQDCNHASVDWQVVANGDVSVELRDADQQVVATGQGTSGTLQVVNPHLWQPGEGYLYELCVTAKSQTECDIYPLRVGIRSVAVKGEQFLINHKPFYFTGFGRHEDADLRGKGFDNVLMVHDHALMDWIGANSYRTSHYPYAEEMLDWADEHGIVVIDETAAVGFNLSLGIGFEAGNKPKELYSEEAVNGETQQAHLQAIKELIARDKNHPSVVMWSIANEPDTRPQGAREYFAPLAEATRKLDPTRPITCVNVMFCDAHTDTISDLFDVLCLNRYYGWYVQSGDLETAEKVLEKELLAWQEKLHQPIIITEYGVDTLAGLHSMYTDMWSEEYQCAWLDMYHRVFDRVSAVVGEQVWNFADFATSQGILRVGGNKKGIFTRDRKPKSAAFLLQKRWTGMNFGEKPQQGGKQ
# UniProt Q96KQ7, sequence (whole entry, looked up): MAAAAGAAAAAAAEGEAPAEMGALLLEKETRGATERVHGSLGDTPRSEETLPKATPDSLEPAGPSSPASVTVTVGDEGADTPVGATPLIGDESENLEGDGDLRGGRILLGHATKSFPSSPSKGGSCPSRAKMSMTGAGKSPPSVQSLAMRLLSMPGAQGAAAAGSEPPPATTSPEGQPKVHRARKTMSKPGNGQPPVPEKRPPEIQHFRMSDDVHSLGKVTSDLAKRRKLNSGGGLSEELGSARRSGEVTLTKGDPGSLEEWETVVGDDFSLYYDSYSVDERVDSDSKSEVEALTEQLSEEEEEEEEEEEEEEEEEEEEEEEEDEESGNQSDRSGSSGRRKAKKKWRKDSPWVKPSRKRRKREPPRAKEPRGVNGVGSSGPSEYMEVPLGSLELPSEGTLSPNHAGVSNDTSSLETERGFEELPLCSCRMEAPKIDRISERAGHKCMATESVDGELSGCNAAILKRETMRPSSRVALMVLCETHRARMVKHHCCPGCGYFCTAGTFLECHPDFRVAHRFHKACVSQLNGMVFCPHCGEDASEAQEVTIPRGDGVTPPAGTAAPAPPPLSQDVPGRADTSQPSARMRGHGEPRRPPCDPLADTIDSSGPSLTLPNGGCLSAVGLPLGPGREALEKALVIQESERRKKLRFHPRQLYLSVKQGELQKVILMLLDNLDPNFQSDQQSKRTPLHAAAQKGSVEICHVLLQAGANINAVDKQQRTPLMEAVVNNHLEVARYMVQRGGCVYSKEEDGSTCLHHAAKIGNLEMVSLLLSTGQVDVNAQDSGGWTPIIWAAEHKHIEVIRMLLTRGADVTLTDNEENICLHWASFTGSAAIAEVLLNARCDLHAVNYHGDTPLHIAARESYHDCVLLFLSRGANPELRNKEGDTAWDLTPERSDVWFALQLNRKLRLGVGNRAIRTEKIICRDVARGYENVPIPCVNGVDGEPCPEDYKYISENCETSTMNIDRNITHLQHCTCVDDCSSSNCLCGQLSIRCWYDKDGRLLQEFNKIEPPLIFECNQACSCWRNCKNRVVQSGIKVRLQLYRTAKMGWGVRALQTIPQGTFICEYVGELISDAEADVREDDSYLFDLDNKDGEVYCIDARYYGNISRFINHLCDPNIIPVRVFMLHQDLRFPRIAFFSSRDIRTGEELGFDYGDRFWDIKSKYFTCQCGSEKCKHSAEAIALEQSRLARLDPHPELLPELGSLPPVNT
Compound,target,assay,test system,conditions,IC50
O=c1c(O)c(-c2ccc(O)c(O)c2)oc2cc(O)cc(O)c12,"RNMT (Homo sapiens, UniProt O43148)","enzyme activity, inhibitor",,,0.4 µM
c1ccc(-c2csc(Nc3nc4cc5c(cc4s3)OCO5)n2)nc1,"CTP synthase 2 (CTPS2, Homo sapiens, UniProt Q9NRF8)",,,,> 100 µM
O=C1c2ccccc2[Se](=O)N1c1ccccc1 (centres unmarked),"HDAC11 (Homo sapiens, UniProt Q96DB2)","enzyme activity, inhibitor, fluorescence",,,> 10 µM
CCc1cccc2c(C(=O)NC3CCN(C(=O)C(C)C)CC3)c[nH]c12,"Genome polyprotein, 3C protease (rhinovirus B14, UniProt P03303)","3C protease activity, SAMDI-MS",human rhinovirus,,28.5 µM
CC(C)[C@H](NC(=O)c1ccc(CCc2nc3c(c(=O)[nH]2)CCC3)cc1)C(=O)NC1CNC1,"MMP9 (Homo sapiens, UniProt P14780)","enzyme activity, inhibitor",,,> 5 µM
C=C1C(=O)N[C@@H](C)C(=O)N(C)[C@@H](C)C(=O)N[C@@H]([C@H](OC(=O)[C@@H](NC(=O)CC)[C@H](O)C(C)C)C(C)C)C(=O)N(C)[C@@H]([C@@H](C)OC)C(=O)O[C@H](C(C)C)[C@H](NC(C)=O)C(=O)O[C@H](Cc2ccccc2)C(=O)N1C,"Guanine nucleotide binding protein q polypeptide (Cricetulus griseus, UniProt Q3HR10)","inositol phosphate, antagonist, TR-FRET",,,0.0324 µM
COC1CC(=O)N(C)C=CCCCC(=O)N(C)C(C(C)C)C(=O)N(C)C(CC(C)C)C(=O)OC(C(C)C)CC(C)C1 (centres unmarked),"TACR2 (Homo sapiens, UniProt P21452)","β-arrestin recruitment, antagonist",,,7 µM
Cn1nnc(-c2cccc(NC(=O)CCS)c2)n1,"VIM-2 (Escherichia coli, UniProt Q5U7L7)","enzyme activity, inhibitor, fluorescence",,with preincubation,0.079 µM
CC[C@H](C)[C@H](NC(=O)[C@@H](N)CC(=O)O)C(=O)N[C@H]1CSC(=O)[C@H](Cc2ccccc2)NC(=O)[C@H](Cc2ccc(O)cc2)NC(=O)[C@H](C)NC(=O)[C@H](CC(N)=O)NC1=O,"Accessory gene regulator protein C (Staphylococcus aureus, UniProt Q309Z2)",,,,> 1 µM
Cc1ccc(C(C)C)cc1.[Cl][Au].[Cl][Ru][Cl].c1ccc(P(CP(c2ccccc2)c2ccccc2)c2ccccc2)cc1,"Cathepsin B (CTSB, Homo sapiens, UniProt P07858)",inhibitor,,"10 min preincubation, pH 6, room temperature, added: Z-FR-AMC",31.4 µM
CC(C)C[C@H](NC(=O)[C@H](CC(C)C)NC(=O)[C@H](Cc1c[nH]cn1)NC(=O)CNC(=O)[C@@H](NC(=O)[C@H](C)NC(=O)[C@H](Cc1c[nH]c2ccccc12)NC(=O)[C@H](CCC(N)=O)NC(=O)[C@H](CC(N)=O)NC(=O)CNC(=O)[C@H](CC(C)C)NC(=O)[C@H](CCCNC(=N)N)NC(=O)[C@H](CCC(N)=O)NC(=O)[C@@H]1CCC(=O)N1)C(C)C)C(N)=O,"GRPR (Homo sapiens, UniProt P30550)","ligand displacement in cells, radioligand",,,0.001 µM
CCC(C)SSc1ncc[nH]1 (centres unmarked),"Genome polyprotein, 3C protease (Human enterovirus 71, UniProt B9VUU3)","protease activity, inhibitor, FRET",Enterovirus A71,no DTT,4.1 ± 1.9 µM
COCC(=O)NCCSc1c(-c2ccc(Br)cc2)[nH]c2ccccc12,"Apolipoprotein L1 (Homo sapiens, UniProt O14791, I384M/M228I/R255K/S342G)","ion channel function, inhibitor, thallium flux",HEK293 tet-inducible Apolipoprotein L1,,0.58 µM
NC[C@@H](CC[C@H](N)C(=O)O)C[C@H]1O[C@@H](n2cnc3c(N)ncnc32)[C@H](O)[C@@H]1O,"EHMT2 (Homo sapiens, UniProt Q96KQ7)","enzyme activity, inhibitor, radiometric",,,> 50 µM
CC(=O)NCP(C)(=O)O,"Urease subunit alpha (Sporosarcina pasteurii, UniProt P41020)","enzyme activity, inhibitor, indophenol colorimetric",,"20 min, pH 7.0, 37 °C, added: 50 mM urea",258 ± 12.7 µM
C1=C(c2cc3c(Nc4ccc5scnc5c4)ncnc3s2)CCNC1,"RIPK2 (Homo sapiens, UniProt O43353)","enzyme activity, inhibitor",,,0.006 µM
N#CCc1cccc(Cl)c1-c1ccc2[nH]c(=O)[nH]c2c1,"GRIA1/CACNG8 (Homo sapiens, UniProt P42261+Q8WXS5)","glutamate-induced calcium flux, inhibitor, FLIPR",HEK293 cells,,0.0195 µM
C=Cc1cc(OC)c2c(c1)c(=O)oc1c2cc(OC)c2c(O)ccc([C@@H]3O[C@H](C)[C@H](O)[C@@](C)(O)[C@H]3O)c21,"2,3,4,5-tetrahydropyridine-2,6-dicarboxylate N-acetyltransferase (dapH, Staphylococcus aureus, UniProt A6QGU8)","enzyme activity, inhibitor, DTNB colorimetric",,added: acetyl-CoA 200 µM,4.03 ± 0.92 µM
COC(=O)CC[C@@H]1NC(=O)[C@H](Cc2c[nH]c3ccccc23)NC(=O)[C@@H]2CC(=O)O[C@H](C)[C@H](NC(=O)[C@H](CCC(=O)O)NC(=O)[C@H](CO)NC(=O)[C@H](CCCNC(=N)N)NC(C)=O)C(=O)N[C@@H](CC(C)C)C(=O)N[C@@H](CCCCNC(=O)CC[C@@H](C(=O)N[C@@H](Cc3ccccc3)C(=O)O)NC1=O)C(=O)N[C@@H](Cc1ccc(O)cc1)C(=O)N1CCC[C@H]1C(=O)N[C@@H](CO)C(=O)N2,"Chymotrypsinogen A (Bos taurus, UniProt P00766)","enzyme activity, inhibitor, fluorescence",,,1.5 µM
CNC(=O)C1OC(n2cnc3c(NCc4cccc(I)c4)ncnc32)C(O)C1O (centres unmarked),"SLCO1B3 (Homo sapiens, UniProt Q9NPD5)","transport, inhibitor",,"10 (unit not given), pre-incubation, added: cholecystokinin",12.9 ± 5 µM
Cc1cccc(-c2nc(Nc3ccncn3)c3c(C)csc3n2)n1,"Cytochrome P450 3A4 (CYP3A4, Homo sapiens, UniProt P08684)","enzyme activity, inhibitor",,added: VR substrate,32 µM
CCCCCC1CC(=O)N[C@@H](CO)C(=O)N[C@@H](Cc2ccccc2)C(=O)N[C@@H](Cc2ccc(O)cc2)C(=O)N[C@H](CCCNC(N)=O)C(=O)N[C@@H](CC(=O)O)C(=O)O1 (some centres unmarked),"Proteasome component C5/PSMB5 (Homo sapiens, UniProt P20618+P28074)","enzyme activity, inhibitor",,,> 50 µM
O=C(O)c1cscn1,"4-diphosphocytidyl-2-C-methyl-D-erythritol kinase (ispE, Klebsiella pneumoniae subsp. pneumoniae, UniProt A6TAP2)","enzyme activity, PK/LDH coupled spectrophotometric",,,296 ± 13.8 µM
COc1cc(O)c2c(=O)oc3cc(O)cc(C)c3c2c1,"PNLIP (Sus scrofa, UniProt P00591)","enzyme activity, inhibitor, fluorescence",,,70.6 µM
C1CCN(c2nnnc3c2sc2nc(N4CCOCC4)c4c(c23)CCCC4)CC1,"Beta-glucuronidase (Streptococcus agalactiae serotype V, UniProt Q8E0N2)",,Streptococcus agalactiae,,> 100 µM
Nc1ccn(CC2COP(=O)(OCCNC(=O)CCCCC3SCC4NC(=O)NC43)CO2)c(=O)n1 (mixture of isomers),"Sodium-dependent multivitamin transporter (Canis lupus familiaris, UniProt A0A8I3MY61)",biotin uptake,MDCK-MDR1,added: [3H]-biotin,31.4 ± 3.05 µM
CC[C@H](C)[C@H](N)C(=O)N[C@@H](CO)C(=O)N[C@@H](CCC(N)=O)C(=O)N[C@H](C(=O)N[C@@H](CC(N)=O)C(=O)N[C@@H](CCC(=O)O)C(=O)N[C@@H](CCCCN)C(=O)N[C@H](C(=O)N[C@@H](CC(N)=O)C(=O)N[C@@H](CCC(N)=O)C(=O)N[C@@H](CO)C(=O)N[C@@H](CC(C)C)C(=O)N[C@@H](C)C(=O)N[C@@H](Cc1ccccc1)C(=O)N[C@H](C(=O)N[C@@H](CCCNC(=N)N)C(=O)N[C@@H](CCCCN)C(=O)N[C@@H](CO)C(=O)N[C@@H](CC(=O)O)C(=O)N[C@@H](CCC(=O)O)C(=O)N(CCOC)CC(=O)N(CCOC)CC(=O)N(CCOC)CC(=O)N(CCOC)CC(=O)N(CCOC)CC(=O)N(CCOC)CC(=O)N(CCOC)CC(=O)N(CCOC)CC(=O)N(CCOC)CC(=O)N(CCOC)CC(N)=O)[C@@H](C)CC)[C@@H](C)CC)C(C)C,hRSV fusion protein 5-helix bundle,"binding, fluorescence polarization",,added: Fl-C35 tracer 5 nM,> 200 µM
COc1ccc(N=Nc2cccc(NC(=O)CCCCCCC(=O)NO)c2)cc1,"HDAC2 (Homo sapiens, UniProt Q92769)","enzyme activity, inhibitor",,"cis isomer, irradiated",0.098 ± 0.014 µM
C[C@]12CC[C@@H]3c4ccc(O)c(Cl)c4CC[C@H]3[C@@H]1CCC2=O,"AKR1C2 (Homo sapiens, UniProt P52895)","enzyme activity, inhibitor, absorbance",,pH 9,5.3 µM
CN=c1nc(-c2ccccc2)n(-c2ccccc2)s1,"mRNA cap guanine-N(7) methyltransferase, with RAM (RNMT, Homo sapiens, UniProt O43148)","N7-methyltransferase activity, inhibitor, Py-FLINT",,"RNMT-RAM complex, added: SAM 20 µM",16 ± 3.3 µM
O=C(NCCCCCn1ccc2ccc(F)cc21)Oc1cccc(F)c1,"Faah (Rattus norvegicus, UniProt P97612)",,rat brain homogenate,"60 min, 37 °C",0.015 µM
N=C(N)NC(=O)c1ccc(C(=O)NCCCC[C@H](NC(=O)CNC(=O)CCC(=O)NN)C(=O)N[C@@H](Cc2c[nH]c3ccccc23)C(=O)N[C@@H](CCCCN)C(N)=O)[nH]1,"Tryptase beta-2 (TPSB2, Homo sapiens, UniProt P20231)",,,pH 7.4,24.5 µM and ~25 µM
O=NSCC(O)C(O)CSN=O (racemic),"Sh (Drosophila melanogaster, UniProt P08510, C301S/C308S/del6-46/T449V)","potassium current, inhibitor, whole-cell patch clamp",HEK cells,internal TEA competition,~200 µM
CCn1c(-c2ccc(OC)cc2)c(-c2ccc(OC)cc2)n(CC)c1=[Se+][Au-][P+](CC)(CC)CC.Cl,"thioredoxin reductase (Acinetobacter baumannii, UniProt A0A0G4QN87)","enzyme activity, inhibitor",,added: DTNB,4.75 µM
CCCC[C@H]1C(=O)N(C)[C@@H](CCCC)C(=O)N[C@@H](CCCNC(=O)c2ccc(F)nc2)C(=O)N[C@H](C(=O)NCC(N)=O)CSCC(=O)N[C@@H](Cc2ccc(O)cc2)C(=O)N(C)[C@@H](C)C(=O)N[C@@H](CC(N)=O)C(=O)N2CCC[C@H]2C(=O)N[C@@H](Cc2c[nH]cn2)C(=O)N[C@@H](CC(C)C)C(=O)N2C[C@H](O)C[C@H]2C(=O)N[C@@H](Cc2c[nH]c3ccccc23)C(=O)N[C@@H](CO)C(=O)N[C@@H](Cc2cn(C)c3ccccc23)C(=O)N1C,"Programmed cell death 1 ligand 1, with PD-1 (CD274, Homo sapiens, UniProt Q9NZQ7)","PD-1 binding, inhibitor, FRET",,added: PD-1-Ig 20 nM,0.026 to 0.032 µM and 0.0317 µM
C1CCc2c(c(N3CCOCC3)nc3sc4c(N5CCCNCC5)nnnc4c23)C1,"Beta-glucuronidase (uidA, Escherichia coli, UniProt P05804)","enzyme activity, inhibitor",,,1.2 µM
O=C(NCCN1CCC2(CC1)C(=O)NCN2C(=O)C1CCC1)c1ccc2ccccc2c1,"Phospholipase D2 (Homo sapiens, UniProt O14939)","enzyme activity, inhibitor",,,0.32 µM
CCCC[C@@H]1NC(=O)[C@H]([C@@H](C)O)NC(=O)[C@H](CCCNC(=N)N)NC(=O)CNC(=O)CC[C@@H](C(=O)N[C@@H](C)C(=O)N[C@@H](CCCNC(=N)N)C(=O)N[C@@H](CCCCN)C(=O)N[C@@H](CO)C(=O)N[C@H](C(=O)NCC(=O)NCC(N)=O)[C@@H](C)O)NC(=O)[C@H](CCC(N)=O)NC1=O,"SETD7 (Homo sapiens, UniProt Q8WTS6)","enzyme activity, inhibitor, mass spectrometry",,,0.95 µM

# Some of these lines once more:
Compound,target,assay,test system,conditions,IC50
CCCC[C@@H]1NC(=O)[C@H]([C@@H](C)O)NC(=O)[C@H](CCCNC(=N)N)NC(=O)CNC(=O)CC[C@@H](C(=O)N[C@@H](C)C(=O)N[C@@H](CCCNC(=N)N)C(=O)N[C@@H](CCCCN)C(=O)N[C@@H](CO)C(=O)N[C@H](C(=O)NCC(=O)NCC(N)=O)[C@@H](C)O)NC(=O)[C@H](CCC(N)=O)NC1=O,"SETD7 (Homo sapiens, UniProt Q8WTS6)","enzyme activity, inhibitor, mass spectrometry",,,0.95 µM
COC(=O)CC[C@@H]1NC(=O)[C@H](Cc2c[nH]c3ccccc23)NC(=O)[C@@H]2CC(=O)O[C@H](C)[C@H](NC(=O)[C@H](CCC(=O)O)NC(=O)[C@H](CO)NC(=O)[C@H](CCCNC(=N)N)NC(C)=O)C(=O)N[C@@H](CC(C)C)C(=O)N[C@@H](CCCCNC(=O)CC[C@@H](C(=O)N[C@@H](Cc3ccccc3)C(=O)O)NC1=O)C(=O)N[C@@H](Cc1ccc(O)cc1)C(=O)N1CCC[C@H]1C(=O)N[C@@H](CO)C(=O)N2,"Chymotrypsinogen A (Bos taurus, UniProt P00766)","enzyme activity, inhibitor, fluorescence",,,1.5 µM
O=c1c(O)c(-c2ccc(O)c(O)c2)oc2cc(O)cc(O)c12,"RNMT (Homo sapiens, UniProt O43148)","enzyme activity, inhibitor",,,0.4 µM
CCn1c(-c2ccc(OC)cc2)c(-c2ccc(OC)cc2)n(CC)c1=[Se+][Au-][P+](CC)(CC)CC.Cl,"thioredoxin reductase (Acinetobacter baumannii, UniProt A0A0G4QN87)","enzyme activity, inhibitor",,added: DTNB,4.75 µM
O=C(NCCCCCn1ccc2ccc(F)cc21)Oc1cccc(F)c1,"Faah (Rattus norvegicus, UniProt P97612)",,rat brain homogenate,"60 min, 37 °C",0.015 µM
CCCCCC1CC(=O)N[C@@H](CO)C(=O)N[C@@H](Cc2ccccc2)C(=O)N[C@@H](Cc2ccc(O)cc2)C(=O)N[C@H](CCCNC(N)=O)C(=O)N[C@@H](CC(=O)O)C(=O)O1 (some centres unmarked),"Proteasome component C5/PSMB5 (Homo sapiens, UniProt P20618+P28074)","enzyme activity, inhibitor",,,> 50 µM
